Assay results from different studies.
Lines come from different studies, so protocols differ. Values joined by “and” are separate records of one study, mostly repeats; a detail may differ. ± marks the error that the study gave.
PIP4K2C: Phosphatidylinositol 5-phosphate 4-kinase type-2 gamma (PIP4K2C, Homo sapiens, UniProt Q8TBX8)
GLP1R: Glucagon-like peptide 1 receptor (GLP1R, Homo sapiens, UniProt P43220)

Nc1ccc2c(O)c(N=Nc3ccc(N=Nc4ccc(N=Nc5cc(S(=O)(=O)[O-])c6cccc(S(=O)(=O)[O-])c6c5)c5ccccc45)c4ccc(S(=O)(=O)[O-])cc34)c(S(=O)(=O)[O-])cc2c1.[Na+].[Na+].[Na+].[Na+] has a kcat of 0.81 s⁻¹ (alternative ancestral dye-decolorizing peroxidase; peroxidase activity, substrate, steady-state kinetics; 25 °C, pH 3 ABTS, 4 others).
O=C(c1ccc(C2CCCCC2)cc1)N1CC(O)C1 gave a hepatic clearance of 3.9 mL/min/kg (liver microsome stability; human liver microsomes; 1 µM, without NADPH).
The remaining binding of C=CC(=O)N1CCC(COCC(=O)N2CCN(c3nc(-c4cnc(N)nc4C(F)F)nc(N4CCOC[C@@H]4C)n3)CC2)CC1 is reported as 90% (PIP4K2C; KINOMEscan; 1 µM).
CCCCC[C@@H]1OC(=O)[C@@H](C)N(C)C(=O)[C@H](CCCCC)OC(=O)[C@@H](C)N(C)C(=O)[C@H](CC(=O)O)OC(=O)[C@@H](C)N(C)C(=O)[C@H](CCCCC)OC(=O)[C@@H](C)N(C)C1=O — result for “Ca2+ spark frequency”: “increased” (Ryr2 (Mus musculus, UniProt E9Q401); permeabilized ventricular cardiomyocytes, C57BL/6J mice; 25 µM, 15 min; reference: vehicle).
With COc1cc(C[C@H]2C(=O)OC[C@@H]2Cc2ccc(OC)c(OC)c2)ccc1O the ΔG was -8.038 ± 0.0215 kcal/mol (PDE4D (Homo sapiens, UniProt Q08499); isothermal titration calorimetry).
Under “onset time of degradation”, Cc1ncsc1-c1ccc(CNC(=O)[C@@H]2C[C@@H](O)CN2C(=O)[C@@H](NC(=O)CCCCCCCCCCCC(=O)NCCCCC#Cc2cccc(-c3nn(-c4nc(C(=O)O)cs4)c(CC4CC4)c3Cc3ccc(S(N)(=O)=O)cc3)c2)C(C)(C)C)cc1 is recorded as 24 h (LDHB (Homo sapiens, UniProt P07195); degrader, western blot; PANC-1; 1 µM).
Cc1cc2c(cc1N1C(=O)c3cccc4c(Cl)ccc(c34)C1=O)n(C)c(=O)n2C gave a ΔTm of -1.2 °C (Transcription intermediary factor 1-alpha, bromodomain (TRIM24, Homo sapiens, UniProt O15164); thermal shift; 10 µM).
Cc1cccc(N2CC(C(=O)O)CC2=O)c1 (centres unmarked) — result for “log fold enrichment”: 0.0794 (Transcription intermediary factor 1-alpha, PHD-bromodomain (TRIM24, Homo sapiens, UniProt O15164); binding, affinity selection mass spectrometry; reference: other proteins in batch).
For Nc1nc2c(ncn2[C@@H]2O[C@H](COP(=O)(O)O)[C@@H](O)[C@H]2O)c(=O)[nH]1, the reaction velocity was 0.0614 µM/s and 0.0635 µM/s and 0.0478 µM/s (GUK1 (Homo sapiens, UniProt Q16774); enzyme activity, NADH-coupled; 31.25 µM, added: KCl 150 mM).
The efficacy of COc1cccc(-n2nc3c4cc(Cl)ccc4[nH]cc-3c2=O)c1 is reported as 103 ± 4.7% (Gamma-aminobutyric acid receptor subunit alpha-6/beta-3, with delta subunit (Gabra6/Gabrb3, Rattus norvegicus, UniProt P30191+P63079); ion current, modulator, two-electrode voltage clamp; 1 nM, α6β3δ receptor, added: GABA EC3-10).
Under “monomer signal loss”, O=C(O[C@@H]1Cc2c(O)cc(O)cc2O[C@@H]1c1cc(O)c(O)c(O)c1)c1cc(O)c(O)c(O)c1 is recorded as no more than 31% (APP (Homo sapiens, UniProt P05067); binding, 1H NMR titration; fivefold excess, 4 °C, amyloid-beta 10 µM).
CC[C@H](C)[C@H](NC(=O)[C@H](Cc1ccccc1)NC(=O)[C@H](CCC(=O)O)NC(=O)[C@H](CCCNC(=N)N)NC(=O)[C@H](C)NC(=O)[C@H](C)NC(=O)[C@H](CCC(N)=O)NC(=O)[C@H](CCC(=O)O)NC(=O)[C@H](CCC(=O)O)NC(=O)[C@H](CC(C)C)NC(=O)[C@H](Cc1ccc(O)cc1)NC(=O)[C@H](CO)NC(=O)[C@H](CO)NC(=O)[C@@H](NC(=O)[C@H](CC(=O)O)NC(=O)[C@H](CO)NC(=O)[C@@H](NC(=O)[C@H](Cc1ccccc1)NC(=O)[C@@H](NC(=O)CNC(=O)[C@H](CCC(=O)O)NC(=O)[C@H](C)NC(=O)CCc1cnc[nH]1)[C@@H](C)O)[C@@H](C)O)C(C)C)C(=O)N[C@@H](C)C(=O)N[C@@H](Cc1c[nH]c2ccccc12)C(=O)N[C@@H](CC(C)C)C(=O)N[C@H](C(=O)N[C@@H](CCCCNc1c(NCCCCCN(O)C(=O)CCC(=O)NCCCCCN(O)C(=O)CCC(=O)NCCCCCN(O)C(C)=O)c(=O)c1=O)C(=O)NCC(=O)N[C@@H](CCCNC(=N)N)C(=O)N[C@@H](CCCCNC(=O)COCCOCCNC(=O)COCCOCCNC(=O)CC[C@H](NC(=O)CCCCCCCCCCCCCCCCC(=O)O)C(=O)O)C(=O)NCC(=O)NCC(=O)N[C@@H](CO)C(=O)N[C@@H](CCCCNc1c(NCCCCCN(O)C(=O)CCC(=O)NCCCCCN(O)C(=O)CCC(=O)NCCCCCN(O)C(C)=O)c(=O)c1=O)C(=O)O)C(C)C — result for “fold potency loss”: 14.2 (GLP1R; agonist, CRE luciferase reporter; BHK cells; metal-free DFO conjugate, added: 0% HSA; reference: parent peptide).
Clc1ccccc1CNCC1CCC(CNCc2ccccc2Cl)CC1 (centres unmarked) — result for “nuclear protein level”: “increased” (Segment polarity protein dishevelled homolog DVL-2, with FoxK2 (Homo sapiens, UniProt O14641); co-immunoprecipitation, measured: FoxK2 interaction; concentration not given).
The fraction bound of O=S(=O)(O)C1CCNCC1 is reported as 0 (SLC6A6 (Homo sapiens, UniProt P31641, Y138A); binding, microscale thermophoresis; 35.1 nM, fitted curve; higher = more binding).
For OC[C@H]1O[C@H](OC[C@H]2OC(O)(CO)[C@@H](O)[C@@H]2O)[C@H](O)[C@@H](O)[C@@H]1O (some centres unmarked), the ΔTm was 3.66 °C (uncharacterized protein (Pelagibacter ubique, UniProt Q4FMK2); differential scanning fluorimetry; Candidatus Pelagibacter ubique; concentration not given; higher = stronger binding).
Under “fold potency loss”, CC[C@H](C)[C@H](NC(=O)[C@H](Cc1ccccc1)NC(=O)[C@H](CCC(=O)O)NC(=O)[C@H](CCCNC(=N)N)NC(=O)[C@H](C)NC(=O)[C@H](C)NC(=O)[C@H](CCC(N)=O)NC(=O)[C@H](CCC(=O)O)NC(=O)[C@H](CCC(=O)O)NC(=O)[C@H](CC(C)C)NC(=O)[C@H](Cc1ccc(O)cc1)NC(=O)[C@H](CO)NC(=O)[C@H](CO)NC(=O)[C@@H](NC(=O)[C@H](CC(=O)O)NC(=O)[C@H](CO)NC(=O)[C@@H](NC(=O)[C@H](Cc1ccccc1)NC(=O)[C@@H](NC(=O)CNC(=O)[C@H](CCC(=O)O)NC(=O)[C@H](C)NC(=O)CCc1cnc[nH]1)[C@@H](C)O)[C@@H](C)O)C(C)C)C(=O)N[C@@H](C)C(=O)N[C@@H](Cc1c[nH]c2ccccc12)C(=O)N[C@@H](CC(C)C)C(=O)N[C@H](C(=O)N[C@@H](CCCNC(=N)N)C(=O)NCC(=O)N[C@@H](CCCNC(=N)N)C(=O)N[C@@H](CCCCNC(=O)COCCOCCNC(=O)COCCOCCNC(=O)CC[C@H](NC(=O)CCCCCCCCCCCCCCCCC(=O)O)C(=O)O)C(=O)NCC(=O)NCC(=O)N[C@@H](CO)C(=O)N[C@@H](CCCCNc1c(NCCCCCN(O)C(=O)CCC(=O)NCCCCCN(O)C(=O)CCC(=O)NCCCCCN(O)C(C)=O)c(=O)c1=O)C(=O)NCC(=O)NCC(=O)N[C@@H](CO)C(=O)N[C@@H](CCCCNc1c(NCCCCCN(O)C(=O)CCC(=O)NCCCCCN(O)C(=O)CCC(=O)NCCCCCN(O)C(C)=O)c(=O)c1=O)C(=O)NCC(=O)NCC(=O)N[C@@H](CO)C(=O)N[C@@H](CCCCNc1c(NCCCCCN(O)C(=O)CCC(=O)NCCCCCN(O)C(=O)CCC(=O)NCCCCCN(O)C(C)=O)c(=O)c1=O)C(=O)O)C(C)C is recorded as 2.3 (GLP1R; agonist, CRE luciferase reporter; BHK cells; Zr-loaded DFO conjugate, added: 1% HSA; reference: parent peptide).
Under “log2 fold change”, CCN1CCC[C@H]1CNC(=O)c1c(O)c(Cl)cc(Cl)c1OC is recorded as 0.303 (Probable G-protein coupled receptor 149 (GPR149, Homo sapiens, UniProt Q86SP6); β-arrestin recruitment, TANGO luminescence, measured: GPR149; concentration not given; reference: basal luminescence).
For COCCN(C)C(=O)c1ccc(C2CCCCC2)cc1, the hepatic clearance was 3.9 mL/min/kg (liver microsome stability; human liver microsomes; 1 µM, without NADPH).
COc1cc(-c2cc(C(C)=O)n3ccccc23)cc(OC)c1Cn1ccnc1 gave a ΔTm of -0.1 °C (TRIM24 (Homo sapiens, UniProt O15164)).
CC[C@H](C)[C@H](NC(=O)[C@H](Cc1ccccc1)NC(=O)[C@H](CCC(=O)O)NC(=O)[C@H](CCCNC(=N)N)NC(=O)[C@H](C)NC(=O)[C@H](C)NC(=O)[C@H](CCC(N)=O)NC(=O)[C@H](CCCCNc1c(NCCCCCN(O)C(=O)CCC(=O)NCCCCCN(O)C(=O)CCC(=O)NCCCCCN(O)C(C)=O)c(=O)c1=O)NC(=O)[C@H](CCC(=O)O)NC(=O)[C@H](CC(C)C)NC(=O)[C@H](Cc1ccc(O)cc1)NC(=O)[C@H](CO)NC(=O)[C@H](CO)NC(=O)[C@H](CCCCNc1c(NCCCCCN(O)C(=O)CCC(=O)NCCCCCN(O)C(=O)CCC(=O)NCCCCCN(O)C(C)=O)c(=O)c1=O)NC(=O)[C@H](CC(=O)O)NC(=O)[C@H](CO)NC(=O)[C@@H](NC(=O)[C@H](Cc1ccccc1)NC(=O)[C@@H](NC(=O)CNC(=O)[C@H](CCC(=O)O)NC(=O)[C@H](C)NC(=O)CCc1cnc[nH]1)[C@@H](C)O)[C@@H](C)O)C(=O)N[C@@H](C)C(=O)N[C@@H](Cc1c[nH]c2ccccc12)C(=O)N[C@@H](CC(C)C)C(=O)N[C@H](C(=O)N[C@@H](CCCNC(=N)N)C(=O)NCC(=O)N[C@@H](CCCNC(=N)N)C(=O)N[C@@H](CCCCNC(=O)COCCOCCNC(=O)COCCOCCNC(=O)CC[C@H](NC(=O)CCCCCCCCCCCCCCCCC(=O)O)C(=O)O)C(=O)O)C(C)C: “fold potency loss” 39.5 (GLP1R; agonist, CRE luciferase reporter; BHK cells; metal-free DFO conjugate, added: 0% HSA; reference: parent peptide).
CN1CCN(c2cc(-c3ccncc3)c(-c3ccc4ccccc4c3)nn2)CC1 gave an activation of 20.6% (GLP1R; agonist, FLIPR; 12.5 µM).
For Nc1ncc2c(n1)-c1c([nH]c3ccc(-c4ccc(F)cc4)cc13)CCC2, the remaining binding was 15% (PIP4K2C; DiscoverX scanMAX; 1 µM; reference: untreated control).
NC(N)=NN=C(C=Cc1ccc([N+](=O)[O-])o1)C=Cc1ccc([N+](=O)[O-])o1 — result for “luminescence signal reduction”: -7.72% (NanoBiT HiBiT/LgBiT luciferase; inhibitor, HiBiT luminescence counterscreen; conditioned medium only; 5 µM, 24 h; reference: vehicle).
For O=c1nc(SCc2cc(F)cc(C(F)(F)F)c2)nc(SCc2ccc3sccc3c2)[nH]1, the relaxed DNA was 46.6% (TOP2A (Homo sapiens, UniProt P11388); DNA relaxation; 15.6 µM, replicate 2).
The koff of NC1CCN(S(=O)(=O)c2cc(C(=O)Nc3cc(F)c(F)c(F)c3)ccc2F)CC1 is reported as 0.0474 s⁻¹ (Capsid protein (C, Hepatitis B virus genotype D subtype ayw, UniProt P03146); surface plasmon resonance; 25 °C).
Cc1ncsc1-c1ccc(CNC(=O)[C@@H]2C[C@@H](O)CN2C(=O)[C@@H](NC(=O)C2(F)CC2)C(C)(C)C)c(OCCOc2ccc(CN3CCN(c4cc(-c5ccccc5O)nnc4N)CC3)cc2)c1: “cooperativity factor alpha” 0.9 (SMARCA4 (Homo sapiens, UniProt P51532); ternary complex binding, AlphaLISA competition; HEK293 cell lysate; added: full-length VCB; reference: binary IC50 over ternary IC50).
For CC[C@@H]1[C@H](F)C(=O)N[C@@H]1COc1nccc2cc(C(N)=O)c(OC)cc12, the inhibition was 7.5% (AKT1 (Homo sapiens, UniProt P31749); ATP probe binding, KiNativ profiling, measured: ATP loop probe site; THP-1 cell lysate; 0.04 mM).
The calcium influx of Nc1ncnc2c1ncn2[C@@H]1O[C@H](COP(=O)(O)CP(=O)(O)OP(=O)(O)O)[C@@H](O)[C@H]1O is reported as 95.9% and 88.1% and 93% and 94.5% (P2X purinoceptor 1 (P2RX1, Homo sapiens, UniProt P51575, S286A); calcium influx; 3.16 µM; reference: ionomycin response).
For CCc1oc2ccccc2c1C(=O)c1cc(Br)c(O)c(Br)c1, “normalized urate uptake” read 0.977 and 1.09 and 0.966 (SLC22A12 (Homo sapiens, UniProt Q96S37); inhibitor; HEK-293T; 0.03 µM, 10 min, 37 °C, added: [14C]urate 10 µM).

Repeated from above:
Under “log2 fold change”, CCN1CCC[C@H]1CNC(=O)c1c(O)c(Cl)cc(Cl)c1OC is recorded as 0.303 (Probable G-protein coupled receptor 149 (GPR149, Homo sapiens, UniProt Q86SP6); β-arrestin recruitment, TANGO luminescence, measured: GPR149; concentration not given; reference: basal luminescence).
The koff of NC1CCN(S(=O)(=O)c2cc(C(=O)Nc3cc(F)c(F)c(F)c3)ccc2F)CC1 is reported as 0.0474 s⁻¹ (Capsid protein (C, Hepatitis B virus genotype D subtype ayw, UniProt P03146); surface plasmon resonance; 25 °C).
